Measured values of several laboratories.
Each line is one published result; not all experiments were run side by side. ± gives the spread as reported.
SCTR: Secretin receptor (SCTR, Homo sapiens, UniProt P47872)
POLB: DNA polymerase beta (POLB, Homo sapiens, UniProt P06746)
POLB I260M: DNA polymerase beta (POLB, Homo sapiens, UniProt P06746, I260M)
T1: ssRNA FMR1 5' UTR CGG repeat (Homo sapiens); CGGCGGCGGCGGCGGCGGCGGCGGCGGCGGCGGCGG

CC(C)CCC[C@@H](C)[C@H]1CC[C@H]2[C@@H]3CC=C4C[C@@H](OS(=O)(=O)O)CC[C@]4(C)[C@H]3CC[C@]12C gave a maximal inhibition of 83.5 ± 5.1% (Prothrombin (F2, Homo sapiens, UniProt P00734); enzyme activity, inhibitor; 0 (unit not given), pH 7.4, 25 °C, no Tween, added: Spectrozyme TH).
For Oc1c(C(Nc2nc3ccccc3s2)c2ccccc2OCc2ccccc2)ccc2cccnc12 (centres unmarked), the Hill slope was 1.02 ± 0.05 (Genome polyprotein, NS2B-NS3 protease (Dengue virus type 2, UniProt P14340); enzyme activity, inhibitor; 0.1% CHAPS, added: Bz-Nle-Lys-Arg-Arg-AMC substrate).
The maximal inhibition of Oc1cc2c(cc1O)C(c1ccccc1)CNCC2 (racemic) is reported as 91.2% (Carbamate kinase (Giardia intestinalis, UniProt A8BB85); enzyme activity, inhibitor, luminescence, ATP detection; Giardia lamblia).
CC(C)(C)CCN1C[C@@H]2[C@@H](CNC(=O)c3cc(Cl)cc(Cl)c3)[C@@H]2C1.Cl gave a Gmax of 0.106 ± 0.0569 nS/pF (Voltage-dependent L-type calcium channel subunit alpha-1F (Homo sapiens, UniProt O60840, M1004A); calcium current, whole-cell patch clamp; HEK-293T cells; 100 µM).
Under protein level, COc1ccc(CCNc2ncnc3sc(C)cc23)cc1OC is recorded as “no effect” (COUP transcription factor 2 (NR2F2, Homo sapiens, UniProt P24468); western blot; LNCaP; concentration not given, 18 h).
COc1ccc(CCNc2nc(-c3ccccc3)cc(C(F)(F)F)n2)cc1OC — result for “increase of binding”: 13% (SCTR; Fluo-Sec binding, TR-FRET; HEK293 membranes, SNAP-tagged receptor; concentration not given, added: Fluo-Sec).
Nc1nc2c(ncn2[C@H]2C[C@H](O)[C@@H](COP(=O)(O)OP(=O)(O)[C@H](Cl)P(=O)(O)O)O2)c(=O)[nH]1 gave a Kd ratio of ~3 fold (POLB; quench-flow kinetics; opposite C; relative to: S over R).
The remaining activity of O=C(O)c1ccnc(C(=O)O)c1Br is reported as 100% (Egl nine homolog 1 (EGLN1, Homo sapiens, UniProt Q9GZT9); inhibitor, HTRF; 400 µM).
Cc1cn(C2CC(O)C(COP(=O)(O)OP(=O)(O)C(Br)P(=O)(O)O)O2)c(=O)[nH]c1=O (mixture of isomers) gave a kpol/Kd of 210000 ± 20000 M⁻¹ s⁻¹ (POLB I260M; substrate, single turnover kinetics).
For COc1ccc(-c2cc(C(F)(F)F)nc(NCc3cccnc3)n2)cc1OC, the Emax was 165 ± 12% (SCTR; increase of tracer binding, TR-FRET; HEK293 membranes; added: Fluo-Sec 6 nM).
For Clc1ccc2c(NC3CCOc4ccccc43)ccnc2c1 (centres unmarked), the activation was > 1.5 fold (Nuclear receptor subfamily 4 group A member 2, ligand binding domain (Homo sapiens, UniProt P43354); reporter gene, agonist, Gal4-Nurr1 hybrid reporter; HEK-293T; 30 µM, crude library product; relative to: vehicle (0.1% DMSO)).
Under “time to protein signal recovery”, Cc1ncsc1-c1ccc([C@H](C)NC(=O)[C@@H]2C[C@@H](O)CN2C(=O)[C@@H](NC(=O)[C@H]2C[C@H](C(=O)N3CCC(c4cc(Nc5cc(C#N)ccn5)nc(N5CCC(F)(F)C5)c4)CC3)C2)C(C)(C)C)cc1 is recorded as 48 h (Mitogen-activated protein kinase kinase kinase 13 (MAP3K13, Homo sapiens, UniProt O43283); degrader, western blot; CAL-33 (dox-induced wild-type MAP3K13); concentration not given).
With COc1ccc(CNc2nc(-c3ccc(OC)cc3)cc(C(F)(F)F)n2)cc1 the Emax was 131 ± 9.8% (SCTR; increase of tracer binding, TR-FRET; HEK293 membranes; added: Fluo-Sec 6 nM).
O=C(Nc1ccc(C(=O)Nc2ccc(C(=O)Nc3ccc(S(=O)(=O)O)c4cc(S(=O)(=O)O)cc(S(=O)(=O)O)c34)cc2)cc1)Nc1ccc(C(=O)Nc2ccc(C(=O)Nc3ccc(S(=O)(=O)O)c4cc(S(=O)(=O)O)cc(S(=O)(=O)O)c34)cc2)cc1 has a Vmax of 29.9 ± 1.28 mAU/min (Neutrophil elastase (ELANE, Homo sapiens, UniProt P08246); substrate S-1384 hydrolysis; pH 7.4, 37 °C, enzyme 200 nM).
For CCCN(CC(=O)N(CCC)CC(=O)N(CC(N)=O)Cc1cn(CCCNC(=O)CCCOc2cccc(-c3nc4ccc(-c5nc6ccc(N7CCN(C)CC7)cc6[nH]5)cc4[nH]3)c2)nn1)C(=O)CNCc1cn(CCCNC(=O)CCCOc2cccc(-c3nc4ccc(-c5nc6ccc(N7CCN(C)CC7)cc6[nH]5)cc4[nH]3)c2)nn1, the IC50 was 17 µM (T1, ssRNA FMR1 5' UTR CGG repeat (Homo sapiens); protein displacement, competitor, TR-FRET).
The relative affinity of COc1ccc(CNc2nc3c(c(=O)[nH]2)[n+](C)cn3C2OC(COP(=O)(O)OP(=O)([O-])OP(=O)(O)OCC3OC(n4cnc5c(=O)[nH]c(N)nc54)C(O)C3O)C(O)C2O)cc1 (centres unmarked) is reported as ~2.5 (Eukaryotic translation initiation factor 4E (Eif4e, Mus musculus, UniProt P63073); differential scanning fluorimetry; relative to: m7GpppG).
O=P(O)(O)O[C@@H]1[C@@H](O)[C@H](O)[C@H](O)[C@H](O)[C@H]1OP(=O)(O)O — result for “fold loss of affinity”: 1.4 fold (Inositol 1,4,5-trisphosphate-gated calcium channel ITPR1, IP3-binding core (Itpr1, Rattus norvegicus, UniProt P29994, R504Q); binding, 3H-IP3 competition; IP3-binding core; relative to: R504Q over wild type).
CC1(C)CCN(Cc2ccc(C(=O)NC[C@]3(O)CCCN(c4cc(NCc5ccccc5)ncn4)C3)c(O)c2)CC1 gave a remaining activity of 72% (Cyclin-dependent kinase 2, with cyclin A (CDK2, Homo sapiens, UniProt P24941); kinase activity, radiometric; 10 µM, added: 10 µM ATP).
For CC1(C)C(/C=C/C2=C(Oc3ccc(CCC(=O)N[C@@H](CSC4CC(=O)N(CCNC(=O)CN5CCN(CC(=O)O)CCN(CC(=O)O)CCN(CC(=O)O)CC5)C4=O)C(=O)NCCCC[C@@H]4NC(=O)[C@@H](Cc5ccc(O)cc5)NC(=O)[C@H](CC(=O)O)NC(=O)CNC(=O)[C@H](CCCNC(=N)N)NC4=O)cc3)C(=C/C=C3/N(CCC[N+](C)(C)C)c4ccc(S(=O)(=O)O)cc4C3(C)C)/CCC2)=[N+](CCC[N+](C)(C)C)c2ccc(S(=O)(=O)O)cc21 (some centres unmarked) [copper-64 labelled], the binding potential was 1.75 ± 0.026 (integrin αvβ3; dynamic PET, Logan plot; female athymic nude mouse, MDA-MB-435 xenograft; dose not given, 60 min, unit not given; relative to: muscle).
For CC(=O)NCC(=O)N[C@@H](CC(=O)O)C(=O)N[C@@H](Cc1ccc(O)cc1)C(=O)N[C@@H](CO)C(=O)N[C@@H](Cc1c[nH]cn1)C(=O)N[C@H]1CSSC[C@@H](C(=O)N[C@H](C(=O)N[C@@H](Cc2ccc(O)cc2)C(=O)N2CCC[C@H]2C(=O)N[C@@H](CC(=O)O)C(=O)N2CCC[C@H]2C(=O)N[C@@H](CCC(=O)O)C(=O)NCC(=O)NCC(=O)NCC(N)=O)[C@@H](C)O)NC(=O)[C@H](CCCCN)NC(=O)[C@H](Cc2c[nH]c3ccccc23)NC(=O)[C@H](Cc2c[nH]c3ccccc23)NC(=O)[C@@H]2CCCN2C(=O)[C@H](Cc2ccc(O)cc2)NC(=O)[C@H](Cc2ccc(O)cc2)NC(=O)[C@H](CCCNC(=N)N)NC(=O)[C@H](CC(C)C)NC(=O)[C@@H]2CCCN2C(=O)[C@H](CO)NC1=O, the maximal inhibition was 15 ± 2% (Angiotensin-converting enzyme (Mus musculus, UniProt P09470); enzyme activity, inhibitor; mouse heart homogenate; 4 h).
O=c1c2sccc2n(CC2COc3ccccc3O2)c(=O)n1O (centres unmarked) has a Kiu of 117 ± 27 nM (Flap endonuclease 1 (Homo sapiens, UniProt P39748); inhibitor; mixed inhibition, added: double-flap substrate DF1).
COc1ccc(-c2cc(C(F)(F)F)nc(S(=O)(=O)NCC(=O)Nc3ccc(C)cc3)n2)cc1 gave an alkylated protein of ~85% (Bifunctional 3'-5' exonuclease/ATP-dependent helicase WRN (WRN, Homo sapiens, UniProt Q14191); intact protein mass spectrometry; overnight, 4 °C, at least one cysteine alkylated, added: 10-fold compound excess).
For O=C(CCCCCCS)Nc1ccccc1, the ΔCp was -0.27 ± 0.01 kcal mol^–1 K^–1 (Histone deacetylase 8 (HDAC8, Homo sapiens, UniProt Q9BY41); temperature-dependent ITC; Tris-HCl buffer; range from 5 °C).
NNC(=O)CCn1c2ccc(Cl)cc2c2cc(Cl)ccc21 — result for activity: “inactive” (Kcnk2 (Mus musculus, UniProt P97438); potassium current, two-electrode voltage clamp; Xenopus oocytes; 500 µM).
For Cc1ccc(C(=O)N2CCN(Cc3noc(-c4ccccc4)n3)CC2)c(C)c1, “current fold increase” read 1.06 ± 0.07 (Potassium voltage-gated channel subfamily KQT member 2 (KCNQ2, Homo sapiens, UniProt O43526); potassium current, activator, whole-cell patch clamp; CHO, stable; 20 µM; relative to: current before compound).
With CC(P(=O)(O)O)P(=O)(O)OP(=O)(O)OCC1OC(n2cnc3c(=O)[nH]c(N)nc32)CC1O (mixture of isomers) the kpol/Kd was 5.3 ± 4.4 M⁻¹ s⁻¹ (POLB; nucleotide incorporation, substrate, single turnover kinetics; dG misincorporation opposite A).
CNc1ccccc1C(=O)O[C@H]1C[C@H](n2cnc3c(N)ncnc32)O[C@@H]1COP(=O)(O)OP(=O)(O)O — result for “association rate constant”: 2.65e+06 ± 50000 M⁻¹ s⁻¹ (Unconventional myosin-Va (Gallus gallus, UniProt Q02440, D297C/G292C/I296C/S293C/V295G); stopped-flow FRET; 10 °C, added: MgCl2 2 mM).
COc1ccc(-c2cc(C(F)(F)F)nc(SCC(=O)N(C)c3ccccc3)n2)cc1OC has an Emax of 47 ± 16% (SCTR; cAMP accumulation, positive allosteric modulator; CHO-K1 overexpressing SCTR; added: EC10-EC20 secretin peptide mix; relative to: EC95 peptide mix).
For Nc1nc2c(ncn2C2CC(O)C(COP(=O)(O)OP(=O)(O)C(Br)P(=O)(O)O)O2)c(=O)[nH]1 (mixture of isomers), the kpol/Kd was 8.8 ± 3.8 M⁻¹ s⁻¹ (POLB I260M; nucleotide incorporation, substrate, single turnover kinetics; dG misincorporation opposite A).

For quick reference, copied from above:
CC(C)CCC[C@@H](C)[C@H]1CC[C@H]2[C@@H]3CC=C4C[C@@H](OS(=O)(=O)O)CC[C@]4(C)[C@H]3CC[C@]12C gave a maximal inhibition of 83.5 ± 5.1% (Prothrombin (F2, Homo sapiens, UniProt P00734); enzyme activity, inhibitor; 0 (unit not given), pH 7.4, 25 °C, no Tween, added: Spectrozyme TH).
For Oc1c(C(Nc2nc3ccccc3s2)c2ccccc2OCc2ccccc2)ccc2cccnc12 (centres unmarked), the Hill slope was 1.02 ± 0.05 (Genome polyprotein, NS2B-NS3 protease (Dengue virus type 2, UniProt P14340); enzyme activity, inhibitor; 0.1% CHAPS, added: Bz-Nle-Lys-Arg-Arg-AMC substrate).
The maximal inhibition of Oc1cc2c(cc1O)C(c1ccccc1)CNCC2 (racemic) is reported as 91.2% (Carbamate kinase (Giardia intestinalis, UniProt A8BB85); enzyme activity, inhibitor, luminescence, ATP detection; Giardia lamblia).
